Measurements pooled from the literature.
Values joined by “and” are separate records of one study, mostly repeats; a detail may differ. Numbers after ± are the reported error.
CHRM3: Muscarinic acetylcholine receptor M3 (CHRM3, Homo sapiens, UniProt P20309)
Sequence of UniProt P20309 (whole entry, looked up): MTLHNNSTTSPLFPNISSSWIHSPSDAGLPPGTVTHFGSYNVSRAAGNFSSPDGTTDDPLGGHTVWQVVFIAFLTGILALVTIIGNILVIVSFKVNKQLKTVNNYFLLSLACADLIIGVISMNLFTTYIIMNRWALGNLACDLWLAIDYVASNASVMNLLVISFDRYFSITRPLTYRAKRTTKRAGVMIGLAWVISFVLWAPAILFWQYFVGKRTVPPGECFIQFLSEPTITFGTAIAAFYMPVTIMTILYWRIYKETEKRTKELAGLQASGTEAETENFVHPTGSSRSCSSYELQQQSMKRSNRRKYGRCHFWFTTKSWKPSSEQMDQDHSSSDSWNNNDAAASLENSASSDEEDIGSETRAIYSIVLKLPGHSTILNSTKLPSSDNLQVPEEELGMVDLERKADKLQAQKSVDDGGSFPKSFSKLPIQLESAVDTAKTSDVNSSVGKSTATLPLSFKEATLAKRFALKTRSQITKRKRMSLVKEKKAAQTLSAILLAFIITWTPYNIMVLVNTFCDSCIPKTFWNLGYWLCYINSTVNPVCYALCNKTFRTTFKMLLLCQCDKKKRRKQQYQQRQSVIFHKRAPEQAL
CASP3: Caspase-3 (CASP3, Homo sapiens, UniProt P42574)
Sequence of UniProt P42574 (whole entry, looked up): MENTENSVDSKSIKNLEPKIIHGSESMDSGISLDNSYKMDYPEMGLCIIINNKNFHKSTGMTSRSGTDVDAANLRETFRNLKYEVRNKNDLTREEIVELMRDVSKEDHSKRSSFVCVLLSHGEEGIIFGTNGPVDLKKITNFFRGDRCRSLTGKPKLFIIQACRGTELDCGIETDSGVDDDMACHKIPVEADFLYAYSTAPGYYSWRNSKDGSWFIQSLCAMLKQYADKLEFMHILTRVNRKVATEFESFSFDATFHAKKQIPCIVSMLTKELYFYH
Sequence of UniProt Q12908 (whole entry, looked up): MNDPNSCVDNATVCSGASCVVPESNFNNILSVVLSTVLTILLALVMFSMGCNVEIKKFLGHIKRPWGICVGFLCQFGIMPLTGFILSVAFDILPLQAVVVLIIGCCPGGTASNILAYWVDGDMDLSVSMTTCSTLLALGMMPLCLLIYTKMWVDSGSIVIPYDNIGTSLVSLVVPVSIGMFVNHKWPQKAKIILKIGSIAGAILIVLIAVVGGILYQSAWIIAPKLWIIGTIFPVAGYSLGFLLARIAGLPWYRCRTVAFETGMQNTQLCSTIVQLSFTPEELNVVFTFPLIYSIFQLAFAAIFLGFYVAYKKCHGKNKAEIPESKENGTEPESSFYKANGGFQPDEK
Sequence of UniProt P11229 (whole entry, looked up): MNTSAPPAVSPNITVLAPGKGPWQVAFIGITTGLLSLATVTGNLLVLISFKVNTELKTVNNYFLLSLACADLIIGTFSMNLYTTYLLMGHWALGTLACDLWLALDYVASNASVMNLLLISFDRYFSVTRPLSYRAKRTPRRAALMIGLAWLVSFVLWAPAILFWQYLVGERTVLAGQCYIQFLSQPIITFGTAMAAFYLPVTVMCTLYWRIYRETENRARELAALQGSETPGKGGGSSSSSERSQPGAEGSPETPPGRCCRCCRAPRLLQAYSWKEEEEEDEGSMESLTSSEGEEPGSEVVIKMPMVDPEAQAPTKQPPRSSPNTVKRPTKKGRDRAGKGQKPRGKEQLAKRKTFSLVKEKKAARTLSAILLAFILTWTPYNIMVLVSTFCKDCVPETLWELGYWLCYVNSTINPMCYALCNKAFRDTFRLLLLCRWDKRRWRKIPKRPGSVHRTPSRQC
Sequence of UniProt Q16720 (whole entry, looked up): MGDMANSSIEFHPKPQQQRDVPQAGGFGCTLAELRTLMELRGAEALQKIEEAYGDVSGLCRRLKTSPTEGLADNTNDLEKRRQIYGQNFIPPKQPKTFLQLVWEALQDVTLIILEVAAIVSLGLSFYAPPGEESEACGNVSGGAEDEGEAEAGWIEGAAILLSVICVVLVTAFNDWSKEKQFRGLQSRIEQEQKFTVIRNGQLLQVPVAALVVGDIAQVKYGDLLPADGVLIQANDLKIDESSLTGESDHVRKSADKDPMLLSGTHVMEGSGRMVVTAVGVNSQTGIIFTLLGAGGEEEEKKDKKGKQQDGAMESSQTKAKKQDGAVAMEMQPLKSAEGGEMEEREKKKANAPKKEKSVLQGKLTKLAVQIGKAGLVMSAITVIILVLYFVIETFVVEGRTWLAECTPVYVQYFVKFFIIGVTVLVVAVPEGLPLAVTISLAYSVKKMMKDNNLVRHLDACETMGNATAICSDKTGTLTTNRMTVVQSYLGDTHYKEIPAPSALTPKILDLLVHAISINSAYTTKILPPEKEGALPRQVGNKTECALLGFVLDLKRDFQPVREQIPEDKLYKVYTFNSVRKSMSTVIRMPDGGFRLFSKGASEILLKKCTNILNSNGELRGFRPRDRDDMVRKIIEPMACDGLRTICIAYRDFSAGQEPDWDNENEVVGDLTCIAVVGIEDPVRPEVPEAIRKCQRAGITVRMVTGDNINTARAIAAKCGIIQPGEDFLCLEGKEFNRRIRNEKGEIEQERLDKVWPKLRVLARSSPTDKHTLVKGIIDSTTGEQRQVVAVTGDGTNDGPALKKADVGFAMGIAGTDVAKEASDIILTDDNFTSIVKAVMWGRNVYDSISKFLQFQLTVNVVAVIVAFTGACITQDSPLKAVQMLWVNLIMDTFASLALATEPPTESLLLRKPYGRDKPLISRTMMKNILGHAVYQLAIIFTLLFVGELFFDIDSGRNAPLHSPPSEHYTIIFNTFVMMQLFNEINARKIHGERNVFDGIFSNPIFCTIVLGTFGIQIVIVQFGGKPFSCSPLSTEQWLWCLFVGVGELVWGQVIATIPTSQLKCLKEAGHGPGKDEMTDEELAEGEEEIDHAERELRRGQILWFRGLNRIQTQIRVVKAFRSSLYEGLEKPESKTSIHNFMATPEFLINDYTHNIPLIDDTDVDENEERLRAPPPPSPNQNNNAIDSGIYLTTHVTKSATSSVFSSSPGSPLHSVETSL
Sequence of UniProt P07288 (whole entry, looked up): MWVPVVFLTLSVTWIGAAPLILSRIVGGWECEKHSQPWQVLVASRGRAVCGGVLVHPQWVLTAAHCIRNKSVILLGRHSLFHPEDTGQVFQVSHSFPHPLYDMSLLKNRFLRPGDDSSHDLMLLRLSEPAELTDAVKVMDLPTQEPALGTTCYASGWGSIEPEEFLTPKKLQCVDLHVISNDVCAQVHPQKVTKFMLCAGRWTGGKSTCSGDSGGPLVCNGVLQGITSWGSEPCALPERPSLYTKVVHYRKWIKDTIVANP
Sequence of UniProt P05804 (whole entry, looked up): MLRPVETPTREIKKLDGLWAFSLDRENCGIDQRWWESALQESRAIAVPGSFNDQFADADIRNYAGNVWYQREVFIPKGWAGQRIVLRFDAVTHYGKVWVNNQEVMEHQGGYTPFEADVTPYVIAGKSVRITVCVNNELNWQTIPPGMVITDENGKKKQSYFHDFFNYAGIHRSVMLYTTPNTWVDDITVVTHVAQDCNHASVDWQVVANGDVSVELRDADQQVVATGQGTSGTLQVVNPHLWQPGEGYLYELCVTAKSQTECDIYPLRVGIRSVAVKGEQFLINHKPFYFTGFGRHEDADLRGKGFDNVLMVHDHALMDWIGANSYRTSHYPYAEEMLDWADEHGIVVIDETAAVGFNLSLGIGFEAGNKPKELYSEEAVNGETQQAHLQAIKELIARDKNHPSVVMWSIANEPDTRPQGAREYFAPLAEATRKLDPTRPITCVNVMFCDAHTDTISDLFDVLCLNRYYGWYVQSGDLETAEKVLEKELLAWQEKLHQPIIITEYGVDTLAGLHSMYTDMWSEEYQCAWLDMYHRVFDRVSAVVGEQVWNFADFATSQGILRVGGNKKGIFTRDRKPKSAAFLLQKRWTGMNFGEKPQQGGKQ
Sequence of UniProt P07550 (whole entry, looked up): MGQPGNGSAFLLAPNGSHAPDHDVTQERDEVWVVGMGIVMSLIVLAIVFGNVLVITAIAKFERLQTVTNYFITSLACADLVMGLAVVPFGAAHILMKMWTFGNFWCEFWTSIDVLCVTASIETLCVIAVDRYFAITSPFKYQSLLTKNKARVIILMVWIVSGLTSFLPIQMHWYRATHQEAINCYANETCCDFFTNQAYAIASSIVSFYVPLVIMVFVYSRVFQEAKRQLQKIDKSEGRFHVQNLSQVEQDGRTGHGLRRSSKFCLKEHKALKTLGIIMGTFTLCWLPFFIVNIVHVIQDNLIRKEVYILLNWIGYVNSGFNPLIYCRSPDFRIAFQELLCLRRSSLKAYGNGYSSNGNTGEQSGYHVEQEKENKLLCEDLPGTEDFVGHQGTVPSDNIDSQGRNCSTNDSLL
Sequence of UniProt P61169 (whole entry, looked up): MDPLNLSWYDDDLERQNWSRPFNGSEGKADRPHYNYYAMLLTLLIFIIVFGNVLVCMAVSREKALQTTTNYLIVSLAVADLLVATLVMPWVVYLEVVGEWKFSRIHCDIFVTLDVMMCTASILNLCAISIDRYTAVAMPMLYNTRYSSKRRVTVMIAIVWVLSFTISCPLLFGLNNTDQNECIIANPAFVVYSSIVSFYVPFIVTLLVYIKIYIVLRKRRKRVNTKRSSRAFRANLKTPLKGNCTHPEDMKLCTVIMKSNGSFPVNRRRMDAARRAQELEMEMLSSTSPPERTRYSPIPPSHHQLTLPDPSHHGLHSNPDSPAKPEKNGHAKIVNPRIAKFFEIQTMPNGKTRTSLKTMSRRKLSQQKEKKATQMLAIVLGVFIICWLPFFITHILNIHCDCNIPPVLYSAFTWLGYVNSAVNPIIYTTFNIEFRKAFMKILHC

FC(F)(F)c1ccc(NC(=S)Nc2ccc3[nH]cnc3c2)cc1 — Ki (Beta-glucuronidase (uidA, Escherichia coli, UniProt P05804); enzyme activity, inhibitor, absorbance): 1640 nM
O=C1Nc2ccccc2N(C(=O)CN2CCC(CCCCNCCCCC3CCN(CCCN4C(=O)CCc5ccccc54)CC3)CC2)c2ccccc21 — Ki (CHRM3; ligand displacement, radioligand): 138 nM
CC(C)=CCCC1(C)Oc2ccc3cc(-c4cc(O)cc(O)c4CC=C(C)C)oc3c2CC1O (stereo not drawn) — Ki (PTPN1 (Homo sapiens, UniProt P18031); enzyme activity, inhibitor): 10900 nM
CC(CCC(=O)NC(CCC(=O)Nc1cccnc1F)C(=O)O)C1CCC2C3C(O)CC4CC(O)CCC4(C)C3CCC12C (stereo not drawn) — Ki (SLC10A2 (Homo sapiens, UniProt Q12908); taurocholate uptake, inhibitor; ASBT-MDCK; 10 min, added: taurocholate 2.5 µM): < 10000 nM and 5800 nM
Cc1cc(OCCCN2CCN(c3cccc4sccc34)CC2)ccc1CN1CCCCC1 — Ki (Drd2 (Rattus norvegicus, UniProt P61169); cell-free assay, radioligand): 250 nM
CNC(=O)C1CCN(c2cc(C)c(F)cc2NC(=O)c2ccc(-c3cc(O)ccc3C)c(C)c2)CC1 — Ki (EPHB3 (Homo sapiens, UniProt P54753); cell-free assay, TR-FRET): 128 nM
CC(=O)N[C@@H](CC(=O)O)C(=O)N[C@H](C(=O)N1CCC[C@H]1C(=O)N[C@H](C=O)CC(=O)O)C(C)C — Ki (CASP3; enzyme activity, inhibitor, fluorescence; pH 7): 6.61 nM
CC(C)C[C@@H](C=O)NC(=O)[C@H](Cc1ccc(Br)cc1)NC(=O)[C@H](CCCCN)NC(=O)[C@H](CO)NC(=O)[C@H](CO)NC(=O)OCc1ccccc1 — Ki (Prostate-specific antigen (Homo sapiens, UniProt P07288); enzyme activity, inhibitor, fluorescence; pH 7.8): > 500000 nM
CCC(=O)NCc1cc(C(=O)NCCCC(=O)NCCCCCOc2nsnc2C2=CCCN(C)C2)cc(C(=O)NCCN2CCN(CCCCC3CCN(CC(=O)N4c5ccccc5NC(=O)c5ccccc54)CC3)CC2)c1 — Ki (CHRM1 (Homo sapiens, UniProt P11229); ligand displacement, radioligand): 1.32 nM
O=C1NC(Cc2c[nH]c3c(Cl)cccc23)C(=O)N1Cc1ccccc1 (racemic) — Ki (RIPK1 (Homo sapiens, UniProt Q13546); binding, fluorescence polarisation competition; added: fluorescein-necrostatin-1): 3400 ± 600 nM
COc1ccc(CCCN[C@H]2CCC[C@@H]2CN[C@@H]2CCC[C@H]2CNCCCCN[C@H]2CCC[C@@H]2CN)cc1 — Ki (MAOB (Homo sapiens, UniProt P27338); enzyme activity, inhibitor): > 500000 nM
CC[C@H](C)[C@H](NC(C)=O)C(=O)N[C@H](C(=O)N[C@H](C(=O)N[C@@H](CCCCNC(C)=O)C(=O)N[C@H](C=O)CC(=O)O)C(C)C)[C@@H](C)O — Ki (CASP3; enzyme activity, inhibitor, fluorescence; pH 7): 45.7 nM
CNC(=O)c1ccc(-c2cccc3c2OC(CN)C3)cc1 (stereo not drawn) — Ki (ADRB2 (Homo sapiens, UniProt P07550); binding, fluorescent ligand displacement; SNAP-tagged receptor HEK membranes; added: 50 nM propranolol-green): 1260 nM
CN1CCN(CCCCC2CCN(CC(=O)N3c4ccccc4NC(=O)c4ccccc43)CC2)CC(N)C1 (stereo not drawn) — Ki (CHRM3; ligand displacement, radioligand): 562 nM
CC(C)C[C@H](NC(=O)[C@H](CC(C)C)NC(=O)[C@H](Cc1c[nH]cn1)NC(=O)[C@H](CC(C)C)NC(=O)[C@@H](NC(=O)[C@H](CCC(=O)O)NC(=O)[C@H](CO)NC(=O)[C@H](Cc1c[nH]c2ccccc12)NC(=O)[C@H](C)NC(=O)[C@@H](N)[C@@H](C)O)C(C)C)C(=O)N[C@@H](CO)C(=O)N[C@@H](CCCNC(=N)N)C(=O)NCC(=O)NCC(=O)NCC(=O)N[C@@H](CO)C(=O)N[C@@H](CCCCN)C(N)=O — Ki (Plasma membrane calcium-transporting ATPase 3 (ATP2B3, Homo sapiens, UniProt Q16720); Ca2+-Mg2+-ATPase activity, inhibitor; Sf9 cell microsomes): 274000 ± 40000 nM

A few entries again:
CNC(=O)C1CCN(c2cc(C)c(F)cc2NC(=O)c2ccc(-c3cc(O)ccc3C)c(C)c2)CC1 — Ki (EPHB3 (Homo sapiens, UniProt P54753); cell-free assay, TR-FRET): 128 nM
CC(=O)N[C@@H](CC(=O)O)C(=O)N[C@H](C(=O)N1CCC[C@H]1C(=O)N[C@H](C=O)CC(=O)O)C(C)C — Ki (CASP3; enzyme activity, inhibitor, fluorescence; pH 7): 6.61 nM
